Experimental data of several laboratories.
Parts stem from different laboratories: compare values within a part only. Several values in a cell are separate wells, animals, samples, runs or records.

Set 1
Compound: Cc1cc2c(C(N)=O)c(N)n(-c3c(C)ccc(O)c3C)c2nc1C
SRC: Proto-oncogene tyrosine-protein kinase Src (SRC, Homo sapiens, UniProt P12931)
tested on | test | conditions | inhibition
SRC | kinase activity, inhibitor, HTRF | 0.04115 µM | 83.5%
NCI-H1568 | cell growth | 41.15 nM | 8.46%
SW1463 | cell proliferation | 4.57 nM | 6.49% and -0.25%
NCI-H1568 | cell proliferation | 1.524 nM | 4.74% and 4.51% and 1.66%
SRC | kinase activity, inhibitor, HTRF | 0.0005081 µM, 0.5081 nM | 12.2%
HCC1569 | automated immunoblotting, refers to: CDK1 phospho-Thr14 | concentration not given, 2 h after washout | 24.2%
SRC | enzyme activity, inhibitor, TR-FRET | 41.15 nM | 81.7%
HCC1569 | automated capillary immunoblot, refers to: CDK1 phospho-Thr14 | 0.46 nM | 7.11%
NCI-H1568 | cell proliferation | 3333.33 nM | 73.3% and 74.5%
NCI-H1568 | cell growth | 370.37 nM | 17.4%
NCI-H1648 | cell proliferation | 30000 nM | 96.8%

Set 2 — effect on: binding; method: radioligand binding; concentration: 10 µM
Target: D(2) dopamine receptor (DRD2, Homo sapiens, UniProt P14416)
Sequence of UniProt P14416 (whole entry, looked up): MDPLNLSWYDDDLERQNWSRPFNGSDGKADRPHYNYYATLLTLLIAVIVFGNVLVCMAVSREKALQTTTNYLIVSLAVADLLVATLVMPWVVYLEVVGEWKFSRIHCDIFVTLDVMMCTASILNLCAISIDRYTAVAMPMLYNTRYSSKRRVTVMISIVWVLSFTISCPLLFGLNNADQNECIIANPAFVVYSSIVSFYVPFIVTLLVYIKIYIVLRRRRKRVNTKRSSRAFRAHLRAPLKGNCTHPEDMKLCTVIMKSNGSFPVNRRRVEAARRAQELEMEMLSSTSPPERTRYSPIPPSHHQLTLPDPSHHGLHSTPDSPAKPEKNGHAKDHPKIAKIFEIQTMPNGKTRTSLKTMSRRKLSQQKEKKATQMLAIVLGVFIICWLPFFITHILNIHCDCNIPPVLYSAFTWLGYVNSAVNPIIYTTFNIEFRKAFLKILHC
Structure (SMILES) | inhibition [%]
COc1nc2ccc([C@@](O)(c3ccccc3)C3CCN(C(C)=O)CC3)cc2c(Cl)c1Cc1ccc(-n2cccn2)cc1 | 12.5
C[C@@H]1CN(c2cc(-c3nn(C)c4ccc(OC5(C)CC5)cc34)ncn2)C[C@H](C)O1 | -0.18
Cc1nccc(COC(=O)N2C[C@@H]3[C@@H](CNC(=O)c4ccc5[nH]nnc5c4)[C@@H]3C2)n1 | -13.1
CC1=C(C#N)[C@@H](c2ccc3[nH]nc(C)c3c2)C(C#N)=C(c2ccc(Cl)cc2)N1 | 10.6
COc1cccc(CNC(=O)c2nc3scc(COCc4ccc(C(=O)O)cc4)c3c(=O)[nH]2)c1 | 7.09
CN(C)C(=O)Cn1cc(-c2nc([C@@](C)(c3ccc(-c4cnc(N)nc4)cc3)C3CC3)no2)cn1 | 13.6
CS(=O)(=O)NCC[C@H](NC(=O)c1cncc2c1cnn2-c1ccc(F)cc1)c1ccnc(S(C)(=O)=O)c1 | -5.26
CCCOc1ccc([C@H]2[C@H](C(=O)O)[C@@H](c3ccc4c(c3)OCO4)CN2CC(=O)Nc2c(CC)cccc2CC)cc1 | -11.9
CNC(=O)Nc1ccc2c(c1)[C@]1(CC2)OC(=O)N(CC(=O)N(Cc2ccc(F)cc2)[C@@H](C)C(F)(F)F)C1=O | -8.75
CC(C)(O)c1cncc(-c2nc3ccc(F)cc3n2C2CC2)c1 | -27.1
CC(=O)Nc1nc(CN2CCC[C@H](Cc3cc(C)nc(C)c3)C2)cs1 | 8.04
O=C(Nc1cnc(Oc2ccc(F)cc2)nc1)N1CCc2ncccc2[C@@H]1c1ccc(F)cc1 | 1.65
Cc1nc(N2CC[C@@H](O)C2)ncc1-c1cc(C(F)(F)F)cc2[nH]ncc12 | 12.6
Cc1nc(Cc2cccc(C(F)(F)F)c2)sc1-c1ccc(C(N)=O)nc1 | -5.26
O=C1CCc2cc(Nc3cc(OC4CCOCC4)c([N+](=O)[O-])cc3Cl)ccc2N1 | 2.86
CC(C)CC(=O)N1CCc2nc(-c3ccc(Br)cc3)nc(N(C)Cc3ccccc3)c2C1 | -26.5
Cc1cc(-n2nc(Cc3cc(F)cc(C(F)(F)F)c3)nc2C)ccc1C(N)=O | 0.68
Nc1c(C(=O)NCc2ccc(C(=O)NCCCC3CCCCC3)cc2)cnn1-c1ccccc1 | 15
COCc1nc2cnc3cc(-c4c(C)noc4C)c(OC[C@H]4CCNC4)cc3c2n1[C@H](C)c1ccccc1 | 27.7
CC(=O)N1CCC(c2ccc(C(=O)NC(=N)N)cc2C(F)(F)F)CC1 | -19.5
Cc1c(N2CCCC2)nc2ccc(Br)cc2c1C(=O)NC[C@H](CCC(=O)O)c1ccccc1Cl | 9.71
O=C(NC[C@@H]1[C@H]2CN(C(=O)OCc3cc(C(F)(F)F)cc(C(F)(F)F)c3)C[C@@H]12)c1ccc2[nH]nnc2c1 | 7.71
C[C@H](NC(=O)c1cnc2n1[C@](C)(Cc1ccc(C#N)cc1)C(=O)N2c1cc(Cl)c(F)c(Cl)c1)C(=O)NC1(c2ccccn2)CC1 | 7.62
Cc1c[nH]c2nccc(Oc3c(F)cc(Nc4cc(Cl)nc(N)n4)cc3F)c12 | -4.56
Cc1cc(C)c(-n2ccn3nc(-c4cccnc4)cc23)cc1NC(=O)c1cc(C#N)cc(S(F)(F)(F)(F)F)c1 | 8.74

Set 3 — effect on: enzyme activity; action: inhibitor; concentration: 10 µM
Target: Calcium/calmodulin-dependent protein kinase type II subunit alpha (CAMK2A, Homo sapiens, UniProt Q9UQM7)
Sequence of UniProt Q9UQM7 (whole entry, looked up): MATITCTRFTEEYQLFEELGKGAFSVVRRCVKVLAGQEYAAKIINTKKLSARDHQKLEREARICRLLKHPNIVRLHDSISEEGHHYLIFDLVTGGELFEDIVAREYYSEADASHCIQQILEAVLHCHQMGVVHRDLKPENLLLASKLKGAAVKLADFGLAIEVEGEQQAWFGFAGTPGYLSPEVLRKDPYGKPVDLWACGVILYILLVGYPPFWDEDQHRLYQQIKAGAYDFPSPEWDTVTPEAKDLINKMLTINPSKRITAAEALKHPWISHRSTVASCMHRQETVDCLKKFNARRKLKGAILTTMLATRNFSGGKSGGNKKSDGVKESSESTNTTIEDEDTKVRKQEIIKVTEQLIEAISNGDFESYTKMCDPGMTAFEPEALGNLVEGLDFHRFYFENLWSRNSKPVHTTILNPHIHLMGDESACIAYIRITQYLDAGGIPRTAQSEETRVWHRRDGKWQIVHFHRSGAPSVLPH
SMILES | inhibition
CCOC(=O)[C@H](CCc1ccccc1)N[C@@H](C)C(=O)N1Cc2cc(OC)c(OC)cc2C[C@H]1C(=O)O | 4%
CN(C)CCOc1ccc(/C(=C(/CCCl)c2ccccc2)c2ccccc2)cc1 | -14%
CC(=O)OC/C=C(\C)CCC=C(C)C | -9%
CO[C@@H]([C@@H]1OC(C(=O)O)=C[C@H](N=C(N)N)[C@H]1NC(C)=O)[C@H](O)CO | -9%
OC[C@@H](O)[C@@H](O)CO | 9%
CN(C)CCOC(c1ccccc1)c1ccccc1 | -1%
CCCCCC[C@@H](O)C/C=C\CCCCCCCC(=O)O | -26%
C=C(C)[C@H](CC=C(C)C)Cc1c(O)cc(OC)c2c1O[C@H](c1ccc(O)cc1O)[C@@H](O)C2=O | -22%
COc1ccc2cc1Oc1ccc(cc1)C[C@H]1c3cc(c(OC)cc3CCN1C)Oc1c(O)c(OC)cc3c1[C@@H](C2)N(C)CC3 | -11%

Set 4 — host: mouse; matrix: microsomes or S9; concentration: 2 µM; time: 0.5 h
SMILES | remaining compound [%]
CCOC(=O)COc1cc(Br)c(C#N)cc1OCC | 1.23
CCc1cc2c(Nc3ccc(OC)cc3OC)ncnc2s1 | 2.84
Cc1ccc(S(=O)(=O)n2cc(Br)c3c(N4C[C@@H](C)O[C@@H](C)C4)ncnc32)cc1 | < 1
COc1cc(C2CCN(C(=O)OC(C)(C)C)CC2)ccc1Nc1ncc(Cl)c2[nH]c3c(S(=O)(=O)C(C)C)cccc3c12 | 62.4
CCC(=O)Nc1ccc(C(=O)OCc2ccc(C(=O)c3ccccc3)cc2)cc1 | 83.2
Cc1nnc(N2CCc3nn(C)c(=O)cc3C2)c(C#N)c1C | > 100
COC(=O)c1ccc2c(c1)nc(-c1ccc(C(C)(C)C)cc1)n2Cc1ccc(F)cc1 | 46.3
COC(=O)c1nc(C2CC(C(C)(C)C)=NO2)cc(NC(C)=O)c1Cl (stereo not shown) | 20.7
Nc1ccc(C(=O)Nc2nc(-c3ccc(F)cc3F)cs2)cc1 | 49
N#Cc1ccc2nc(-n3cncn3)c(-c3ccc(Cl)cc3Cl)c(C#N)c2c1 | > 100
Cc1ccc(C(C)NS(=O)(=O)c2ccc(F)c(F)c2)c(C)c1 (stereo not shown) | < 1
Cc1nn(C(C)(C)C)c(C)c1S(=O)(=O)N1CC(C)OC(C)(C)C1 (stereo not shown) | 2.42
Cc1c(O)ccc2c1oc1c(-c3cccnc3O)c3cnn(C(C)C)c3nc12 | 39.7

Excerpt of the above (set 4):
SMILES | remaining compound [%]
COC(=O)c1nc(C2CC(C(C)(C)C)=NO2)cc(NC(C)=O)c1Cl (stereo not shown) | 20.7
CCc1cc2c(Nc3ccc(OC)cc3OC)ncnc2s1 | 2.84
Cc1nn(C(C)(C)C)c(C)c1S(=O)(=O)N1CC(C)OC(C)(C)C1 (stereo not shown) | 2.42
Cc1nnc(N2CCc3nn(C)c(=O)cc3C2)c(C#N)c1C | > 100
